{"data": "Published values collected from several papers", "note": "Parts stem from different laboratories: compare values within a part only. Changes are numbered by the printed parent chain."}
{"data": "Sample 1", "target": "Histone acetyltransferase KAT6A, both winged helices, GST fusion (KAT6A, Homo sapiens, UniProt Q92794, residues 1-181)", "technique": "protein binding microarray", "molecule type": "double-stranded DNA, one strand shown", "medium": "in vitro", "tested at": "not given", "notes": "8-mer, flanks averaged, mean of 2 arrays, mostly near background", "reference": "not given", "direction": "higher = stronger binding", "Residues (chain)": "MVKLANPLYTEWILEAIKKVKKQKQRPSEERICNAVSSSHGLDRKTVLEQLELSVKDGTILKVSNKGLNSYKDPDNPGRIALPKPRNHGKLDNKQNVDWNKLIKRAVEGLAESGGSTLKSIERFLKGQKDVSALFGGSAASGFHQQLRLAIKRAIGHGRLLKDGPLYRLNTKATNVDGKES"}
{"Strand": "GCATTACC", "E-score": 0.044}
{"Strand": "CCTCGCGA", "E-score": 0.154}
{"Strand": "CTAATTCA", "E-score": 0.0365}
{"Strand": "GAATCACC", "E-score": -0.143}
{"Strand": "AAGAGAAC", "E-score": -0.061}
{"Strand": "ATCCAGGC", "E-score": -0.0985}
{"Strand": "CCATCACC", "E-score": -0.148}
{"Strand": "CAGAGGGA", "E-score": -0.12}
{"Strand": "ACGCATTG", "E-score": 0.193}
{"Strand": "ACTAGAGC", "E-score": -0.00545}
{"Strand": "CTTTAGTC", "E-score": -0.114}
{"Strand": "CTCGAGTC", "E-score": -0.0572}
{"Strand": "ATAAGCCC", "E-score": -0.01}
{"Strand": "AGCTAAAA", "E-score": 0.000365}
{"Strand": "CAAAGCGG", "E-score": 0.266}
{"Strand": "ACAGGCAT", "E-score": -0.061}
{"Strand": "AACTACGC", "E-score": 0.161}
{"Strand": "CGGGACGA", "E-score": 0.091}
{"Strand": "ATCGTAAA", "E-score": 0.0107}
{"Strand": "CCGCGCGA", "E-score": 0.334}
{"data": "Sample 2", "target": "ABI1, truncated, D143A, DHFR fusion (Arabidopsis thaliana)", "technique": "DHFR PCA, deep sequencing", "medium": "yeast", "notes": "methotrexate growth selection, single substitutions", "together with": "(+)-ABA 0.39 µM", "reference": "wild-type fitted maximum", "direction": "higher = stronger binding", "starting sequence": "PYL1, truncated, DHFR fusion (Arabidopsis thaliana); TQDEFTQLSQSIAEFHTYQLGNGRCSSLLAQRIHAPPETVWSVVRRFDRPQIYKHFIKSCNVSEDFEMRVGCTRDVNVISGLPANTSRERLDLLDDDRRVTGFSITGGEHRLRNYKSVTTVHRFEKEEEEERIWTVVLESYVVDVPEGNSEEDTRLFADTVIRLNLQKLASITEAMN; partner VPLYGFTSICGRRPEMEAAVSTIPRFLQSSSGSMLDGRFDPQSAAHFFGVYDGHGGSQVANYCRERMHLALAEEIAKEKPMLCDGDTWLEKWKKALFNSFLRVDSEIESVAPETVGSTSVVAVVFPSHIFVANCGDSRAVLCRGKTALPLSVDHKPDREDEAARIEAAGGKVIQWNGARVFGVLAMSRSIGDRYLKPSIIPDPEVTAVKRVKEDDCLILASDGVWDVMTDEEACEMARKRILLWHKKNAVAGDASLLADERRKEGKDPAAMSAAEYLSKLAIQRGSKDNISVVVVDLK"}
{"Variant": "N165E", "relative binding score [%]": 0.203}
{"Variant": "N61Q", "relative binding score [%]": 60.6}
{"Variant": "S63E", "relative binding score [%]": 39.5}
{"Variant": "V43D", "relative binding score [%]": -12.3}
{"Variant": "Y141V", "relative binding score [%]": -12.7}
{"Variant": "V78A", "relative binding score [%]": 8.68}
{"Variant": "T1K", "relative binding score [%]": 42.3}
{"Variant": "S87H", "relative binding score [%]": 42.3}
{"Variant": "F56M", "relative binding score [%]": -2.9}
{"Variant": "N85M", "relative binding score [%]": 63.1}
{"Variant": "I12Y", "relative binding score [%]": -1.21}
{"Variant": "E174T", "relative binding score [%]": 6.12}
{"data": "Sample 3", "target": "CCNA2, cyclin fold, Cln2 fusion (human)", "technique": "yeast growth competition, sequencing", "medium": "yeast", "notes": "strong parent motif", "reference": "not given", "direction": "higher = stronger binding", "starting sequence": "GMNC docking peptide (human); KNAKRNLSSEFAN; partner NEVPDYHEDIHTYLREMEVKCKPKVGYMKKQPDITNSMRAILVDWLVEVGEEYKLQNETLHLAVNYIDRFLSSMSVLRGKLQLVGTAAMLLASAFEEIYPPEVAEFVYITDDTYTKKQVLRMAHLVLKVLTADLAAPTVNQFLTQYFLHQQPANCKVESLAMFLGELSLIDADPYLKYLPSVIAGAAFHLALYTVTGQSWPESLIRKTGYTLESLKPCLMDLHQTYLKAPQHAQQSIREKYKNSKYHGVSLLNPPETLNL"}
{"Variant": "KNAKRNLSCEFAN [S9C]", "normalised enrichment score": 4.85}
{"Variant": "KNATRNLSSEFAN [K4T]", "normalised enrichment score": 1.42}
{"Variant": "KNAKRNLSSEKAN [F11K]", "normalised enrichment score": 0.193}
{"Variant": "KNASRNLSSEFAN [K4S]", "normalised enrichment score": 2.98}
{"Variant": "KNEKRNLSSEFAN [A3E]", "normalised enrichment score": 0.553}
{"Variant": "KNAKRNLSSEGAN [F11G]", "normalised enrichment score": 0.721}
{"Variant": "KNAKRNDSSEFAN [L7D]", "normalised enrichment score": 0.731}
{"Variant": "KFAKRNLSSEFAN [N2F]", "normalised enrichment score": 4.21}
{"Variant": "KNAKGNLSSEFAN [R5G]", "normalised enrichment score": 0.526}
{"Variant": "KNAKRNLRSEFAN [S8R]", "normalised enrichment score": 2.37}
{"Variant": "KNAKTNLSSEFAN [R5T]", "normalised enrichment score": 0.328}
{"Variant": "KNAKRNMSSEFAN [L7M]", "normalised enrichment score": 0.328}
{"Variant": "KNAKRNLPSEFAN [S8P]", "normalised enrichment score": 0.48}
{"Variant": "KNAKRNLSSLFAN [E10L]", "normalised enrichment score": 3.13}
{"Variant": "KNAKRNLSSENAN [F11N]", "normalised enrichment score": -0.142}
{"Variant": "KNAPRNLSSEFAN [K4P]", "normalised enrichment score": 1.02}
{"Variant": "KNWKRNLSSEFAN [A3W]", "normalised enrichment score": 4.64}
{"data": "Mixed results"}
{"Molecule": "PhoQ, residues 284 288 289 292 302 303 WVSSAF", "target": "PhoP, residues 12 14 15 18 19 AWHSL (Escherichia coli, UniProt P23836)", "assay": "Sort-seq, item: YFP reporter", "test system": "E. coli", "setting": "PhoQ-PhoP variant library, together with: 10 µM Mg2+", "how to read": "reference: high Mg2+ state, higher = stronger signaling", "quantity": "fold induction", "result": 3.59}
{"note": "Some of these lines once more (sample 1):"}
{"Strand": "CGGGACGA", "E-score": 0.091}
{"Strand": "AGCTAAAA", "E-score": 0.000365}
{"Strand": "CAAAGCGG", "E-score": 0.266}
{"Strand": "CTCGAGTC", "E-score": -0.0572}
{"Strand": "AAGAGAAC", "E-score": -0.061}
{"Strand": "CAGAGGGA", "E-score": -0.12}
{"Strand": "ACTAGAGC", "E-score": -0.00545}
